Assay results collected from several papers.
Every numbered part comes from another study and shows a few of its results, in no order. Changes are numbered by the printed parent chain.
UniProt Q9C0B0, sequence (30-357, looked up): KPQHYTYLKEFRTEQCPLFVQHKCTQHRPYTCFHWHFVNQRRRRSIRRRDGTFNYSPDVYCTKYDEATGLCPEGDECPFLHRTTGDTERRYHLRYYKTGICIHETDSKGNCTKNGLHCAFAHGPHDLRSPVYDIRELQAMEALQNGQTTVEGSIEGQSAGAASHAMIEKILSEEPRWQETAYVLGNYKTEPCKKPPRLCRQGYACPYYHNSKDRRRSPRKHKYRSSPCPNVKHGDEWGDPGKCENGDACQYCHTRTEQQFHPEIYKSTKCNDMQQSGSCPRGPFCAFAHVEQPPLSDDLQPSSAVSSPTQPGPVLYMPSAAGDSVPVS

Sample 1
Target: Ras GTPase-activating protein-binding protein 1, C-terminal RGG region (G3BP1, Homo sapiens, UniProt Q13283)
UniProt Q13283, sequence (whole entry, looked up): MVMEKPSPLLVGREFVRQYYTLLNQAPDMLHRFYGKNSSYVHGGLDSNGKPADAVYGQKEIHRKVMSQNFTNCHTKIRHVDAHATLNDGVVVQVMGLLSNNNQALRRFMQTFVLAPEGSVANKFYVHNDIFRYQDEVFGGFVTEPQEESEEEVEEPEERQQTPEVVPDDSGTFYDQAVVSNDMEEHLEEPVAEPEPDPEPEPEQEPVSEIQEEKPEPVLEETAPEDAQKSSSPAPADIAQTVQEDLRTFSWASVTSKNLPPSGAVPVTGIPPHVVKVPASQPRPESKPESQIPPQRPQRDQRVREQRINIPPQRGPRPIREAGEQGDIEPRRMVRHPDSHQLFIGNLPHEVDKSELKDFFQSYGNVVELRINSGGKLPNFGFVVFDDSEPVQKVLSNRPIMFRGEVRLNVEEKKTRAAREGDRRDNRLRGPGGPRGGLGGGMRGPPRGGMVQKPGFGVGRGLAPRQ
Technique: RNA Bind-n-Seq
Form: RNA
Sample: in vitro
Tested at: 1 µM
Setting: whole 134-nt RNA, ends assumed
With: 150 mM KCl
Relative to: input library
Reading: higher = stronger binding
Shared flanks, not repeated: GGGAGUUCUACAGUCCGACGAUC … UGGAAUUCUCGGGUGUCAAGG
Oligonucleotide	log2 enrichment
UCCUGUGCUACACAUCGUAUGUACCGAAUCGGGUUUUUUGGUUUUUUGGGUUUUUUGGGAAAGUAUUAUGUUACGCCGUUCGGAUCUGCA	-0.812
CAAGUCCUGUGCUACACAUCGUAUGUACCGAAUCGGGGAAAGGAAAGGAAAGGGGAAAGUAUUAUGUUACGCCGUUCGGAUCUGCACUUC	-1.45
CAAGUCCUGUGCUACACAUCGUAUGUACCGAAUCGGGGCCCGGCCCGGGCCCGGGAAAGUAUUAUGUUACGCCGUUCGGAUCUGCACUUC	-2.09
CAGUUUAAGAGGGGUUUCAUGCAAGGGCAUGUAAAUAGACAAGAAAAAGAAGAAAAAGAAGCAAUAUAUAAAGAACGUUGGCCAGAUUAU	-1.1
CCUCAAGUCCUGUGCUACACAUCGUAUGUACCGAAUCGGAGGGAGGGGAGGGGAAAGUAUUAUGUUACGCCGUUCGGAUCUGCACUUCCA	-0.0344
CACAGACAACACGCACCAAAACAGACACAGAGGGAAGGGGUUGGGAUGGGGACAGGGUGCACAGCAGGGCGGGGUAGGACCCCAGCCCCU	-0.316
GUCCUGUGCUACACAUCGUAUGUACCGAAUCGGGGCCCCCGGGCCCCCGGCCCCCGGGGAAAGUAUUAUGUUACGCCGUUCGGAUCUGCA	-1.45
CCUCAAGUCCUGUGCUACACAUCGUAUGUACCGAAUCGGGUGGUGGGGUGGGAAAGUAUUAUGUUACGCCGUUCGGAUCUGCACUUCCAG	0.779
AGAUGAACAAGAGAACUGGGCAACCCAUGAUCCACAUCUACCUGGACAAGGAAACAGGAAAGCCCAAAGGCGAUGCCACAGUGUCCUAUG	-2.35
UCCUGUGCUACACAUCGUAUGUACCGAAUCGGGAAAAAAGGGAAAAAAGGGAAAAAAGGGAAAGUAUUAUGUUACGCCGUUCGGAUCUGC	-0.775
GCAGGAAGUAAAAACAAAUGGUAAUGCUUCGGAUAGUGGCAGGGGUGGGGGUUGCUAAGGAAAGGGUGGGAUGGGAGUGGGUAAAGAGUU	2.67
CACAGACAACACGCACCCACACAGACACAGAGGGAAGGGGUUGGGAUGGGGACAGGGUGCACAGCAGGGCGGGGUAGGACCCCAGCCGCU	-0.75
AGUCCUGUGCUACACAUCGUAUGUACCGAAUCGGGUUUGGGAAAAAAAGGGAAAGGGAAAGUAUUAUGUUACGCCGUUCGGAUCUGCACU	0.704
UGGGAGGUGGAUUUUGUUUAUUUUUUUAGCUCAUUUCCAGGGGUGGGAAUUUUUUUUUAAUAUGUGUCAUGGAUAAAGUUGUUUUUGAAA	3.63

Sample 2
Target: Sal-like protein 4, full length isoform A (SALL4, Homo sapiens, UniProt Q9UJQ4, residues 1-1053)
UniProt Q9UJQ4, sequence (whole entry, looked up): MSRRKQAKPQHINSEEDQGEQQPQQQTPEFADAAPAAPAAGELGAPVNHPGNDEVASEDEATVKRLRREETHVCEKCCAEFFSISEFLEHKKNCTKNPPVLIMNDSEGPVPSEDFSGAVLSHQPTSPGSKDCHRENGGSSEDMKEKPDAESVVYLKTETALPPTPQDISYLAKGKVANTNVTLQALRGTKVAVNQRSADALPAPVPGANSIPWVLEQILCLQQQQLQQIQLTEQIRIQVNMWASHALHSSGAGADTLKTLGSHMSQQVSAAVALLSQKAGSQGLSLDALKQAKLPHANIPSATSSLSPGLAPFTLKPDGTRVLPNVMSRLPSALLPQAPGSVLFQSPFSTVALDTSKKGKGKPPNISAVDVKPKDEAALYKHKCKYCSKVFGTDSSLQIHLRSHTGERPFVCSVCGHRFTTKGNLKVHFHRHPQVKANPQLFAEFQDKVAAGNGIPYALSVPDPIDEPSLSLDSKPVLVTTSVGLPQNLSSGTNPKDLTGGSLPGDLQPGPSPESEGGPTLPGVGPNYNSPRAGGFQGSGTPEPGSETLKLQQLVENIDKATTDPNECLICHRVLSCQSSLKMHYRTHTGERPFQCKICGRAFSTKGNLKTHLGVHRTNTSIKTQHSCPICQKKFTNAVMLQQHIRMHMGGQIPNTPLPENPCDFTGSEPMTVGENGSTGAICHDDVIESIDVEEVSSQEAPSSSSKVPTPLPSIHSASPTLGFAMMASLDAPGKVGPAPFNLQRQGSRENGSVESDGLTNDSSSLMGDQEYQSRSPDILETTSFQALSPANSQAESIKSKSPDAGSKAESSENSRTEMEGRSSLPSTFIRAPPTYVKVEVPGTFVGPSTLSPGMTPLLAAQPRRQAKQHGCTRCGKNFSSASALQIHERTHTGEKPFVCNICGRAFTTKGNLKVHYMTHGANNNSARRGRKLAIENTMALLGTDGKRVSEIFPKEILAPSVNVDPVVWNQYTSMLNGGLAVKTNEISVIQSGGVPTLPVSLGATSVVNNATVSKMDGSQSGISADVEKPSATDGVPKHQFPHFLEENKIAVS
Technique: universal PBM
Form: double-stranded DNA, one strand shown
Sample: in vitro
Tested at: 600 nM
Setting: 8-mer, flanks averaged, mean of replicates
Reading: higher = stronger binding
Oligonucleotide	E-score
AGTCCCAC	-0.212
ATGAGCCA	0.0701
ACCGTCTG	-0.271
CTTCGCGC	-0.0858
AAGGTCAC	-0.196
ACCCGAAA	0.0135
CAATTGAC	0.0877
CGGAGTGA	-0.202
CACTGTAG	-0.0111
AACTTCAA	0.191
CTCGCGAG	-0.237
GCTCAGAA	-0.146
CAGCTGAG	-0.108
CACGCAGC	-0.32
CTTTTTTA	0.231
ATGTCAAC	0.244
AAGCGGAA	0.0743
CAAAGCAG	0.00642
AGGGGTTG	-0.082
ATGCAAAC	0.0877

Sample 3
Target: Histone acetyltransferase KAT6A, winged helix 2, GST fusion (KAT6A, Homo sapiens, UniProt Q92794, residues 85-181)
Technique: protein binding microarray
Form: double-stranded DNA, one strand shown
Sample: in vitro
Tested at: not given
Setting: 8-mer, flanks averaged, mean of 2 arrays, mostly near background
Relative to: not given
Reading: higher = stronger binding
Construct (chain): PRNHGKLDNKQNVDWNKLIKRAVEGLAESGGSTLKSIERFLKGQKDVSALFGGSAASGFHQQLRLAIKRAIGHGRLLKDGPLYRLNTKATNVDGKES
Oligonucleotide	E-score
GCACCGTA	0.11
CGAAGGGC	0.14
ATACGCTA	-0.194
ATCTTCAT	0.0225
CAATTCGG	-0.0969
AATCCCGC	0.13
ATAAACGC	-0.152
CACACCGC	0.0942
GATAAGGA	0.00576
CAAGCAGC	-0.0892
CTTGGACC	-0.0449
TTGAACAA	0.0476
CTGGTAAC	0.0762
GGGGGACA	0.125
ATCCCGTC	0.0233
AAAACACG	0.18
AATGTGGT	-0.129
TGACGTCA	-0.0399
GCAGAACC	0.0402
ACCGACAA	-0.014
TAAGACCA	-0.0556
ACCCATCA	-0.131
ACAATTGC	-0.248
TACTAACA	0.00825
GCTATATA	0.0124

Sample 4
Target: Centromere-binding protein 1, full length, N-terminal tag (CBF1, Saccharomyces cerevisiae, UniProt P17106, residues 1-351)
UniProt P17106, sequence (whole entry, looked up): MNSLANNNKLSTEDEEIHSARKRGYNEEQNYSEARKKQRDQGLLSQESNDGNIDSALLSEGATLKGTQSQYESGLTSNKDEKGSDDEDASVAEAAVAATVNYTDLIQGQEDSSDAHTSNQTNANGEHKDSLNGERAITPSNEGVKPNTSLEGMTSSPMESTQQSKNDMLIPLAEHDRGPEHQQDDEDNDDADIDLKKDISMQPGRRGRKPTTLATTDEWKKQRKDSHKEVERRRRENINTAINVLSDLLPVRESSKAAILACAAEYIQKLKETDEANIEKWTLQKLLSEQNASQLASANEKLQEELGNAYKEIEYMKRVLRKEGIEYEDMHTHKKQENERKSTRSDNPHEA
Technique: protein-binding microarray
Form: double-stranded DNA, one strand shown
Sample: in vitro
Tested at: 0.8 µM
Setting: whole 60-bp probe, no competitor
Reading: higher = stronger binding
Shared flanks, not repeated: … GTCTTGATTCGCTTGACGCTGCTG
Oligonucleotide	fluorescence intensity [a.u.]
GAATATTATATGAATCCACGCACCTGATCTGGCTAG	1600
GAACATAGCATGCGGCTGATGTCAGATTTCGAATAG	520
GAATGGGTGTGGTGTGGTGTGGGTGTGGGTGTGTAG	545
GAATATAATGTGGGTGATGAAACACGGATTATATAG	541
CTAACGCTTCAATGACGCCTGATGTCAAATGCTTTC	576
CTAGATATCCCTGGTCACCTTACTATCTTCCAATTC	620
CTATTCATATCCTAAAACGTGTTGACAACACTTTTC	599
CTAGATTTATCAGAAGACGTGACCTAGGGTTCTTTC	1230
TGTACGAAGCTATGTTTCATCAGTATAGTAGTTAGG	526
GAAGAACGTTCGTGCGGGGTGATGGTTAGAAAGTAG	575
GAAATTTGTCAACCTCGTGGGAGACTCGATAGGTAG	605
GAATGCAGTTTATGATATGTGATCGCGTTAAAATAG	544
CTAAACTCATCTGTTCTCGTGTGCGCCTGTGTGTTC	562
GAATGGAATACCAGTTTAATCACGATCAGAAATTAG	684
CTATATAAACGGAGAGTGATGACGTTTTAAAAGTTC	553
CTAGAAACTGTTCTATGCGTGCAAAATGATATGTTC	567
CTATTAGACATTTCCCACGTATACAAATATATTTTC	510

Sample 5
Target: Interferon regulatory factor 7, full length, phosphomimetic (IRF7, Homo sapiens, UniProt Q92985, residues 1-503, S101K/S471D/S472D/S475D/S476D/S477D/S483D/S484D/S487D)
UniProt Q92985, sequence (whole entry, unmodified, looked up): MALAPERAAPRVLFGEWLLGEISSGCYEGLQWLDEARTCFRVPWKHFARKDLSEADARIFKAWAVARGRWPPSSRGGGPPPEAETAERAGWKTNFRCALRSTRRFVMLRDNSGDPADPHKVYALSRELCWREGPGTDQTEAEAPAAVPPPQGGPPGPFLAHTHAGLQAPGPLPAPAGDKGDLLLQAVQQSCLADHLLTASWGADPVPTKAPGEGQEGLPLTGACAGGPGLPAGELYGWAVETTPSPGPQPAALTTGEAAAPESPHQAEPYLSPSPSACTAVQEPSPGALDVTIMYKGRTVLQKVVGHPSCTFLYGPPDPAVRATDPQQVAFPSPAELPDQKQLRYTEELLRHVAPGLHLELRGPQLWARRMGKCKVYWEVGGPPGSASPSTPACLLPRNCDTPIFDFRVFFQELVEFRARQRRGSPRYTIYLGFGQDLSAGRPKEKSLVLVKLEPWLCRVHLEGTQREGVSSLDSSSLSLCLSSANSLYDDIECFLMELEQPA
Technique: protein-binding microarray
Form: double-stranded DNA, one strand shown
Sample: in vitro
Tested at: 250 nM
Setting: 60-bp whole probe
With: salmon DNA 0.4 mg/ml
Relative to: random background probes
Reading: higher = stronger binding
Shared flanks, not repeated: GCCTAGCAC … GTCTTGATTCGCTTGACGCTGCTG
Oligonucleotide	log fluorescence [z-score]
GACGGTTTCGGGTTTCGGGCCGTGCTA	10.9
GACGAACTGGGGTACCGAGACGTGCTA	-0.628
TTAGGACAGGACTATCGGTTAGTGCTA	-0.219
TCATTTCTACTTCTGTTACTGTGCTAG	2.11
GACGATCTCCGTCTCGAGACGTGCTAG	-0.11
GACGGTTCCTGTTTCGGGACGTGCTAG	2.96
GACGGTTACGGTTCCGGGACGTGCTAG	0.94
TTCGGTTTCCTTCTCCTTTAGTGCTAG	3.44
GACGATCTCAGTTTCGAGACGTGCTAG	4.22
TCATCTTTCCTTCTTGAACTGTGCTAG	1.54
TTGGGACTGGGTCTCGGTTAGTGCTAG	0.614
GACGGTCTCCTACTGCTGGCGTGCTAG	-0.323
TCAACTTTTTTTTTTCCACTGTGCTAG	0.674
GACGGACTGGGGACTGGGGATGTGCTA	-0.396
GACGTTTTCGGTCTCGGGACGTGCTAG	2.49
TCCTCTTTCTCTGCTACCCTCGTGCTA	1.42
TCAACTTTGCTCTGTGCAACTGTGCTA	-0.222
GACGATGTCAGTCTCGAGACGTGCTAG	0.0271
TTAGGTTTCCTTCCCCTTTAGTGCTAG	1.76
GACGGTATCCTTTTCGTGACGTGCTAG	0.887

Sample 6
Target: CCNA1, cyclin fold, Cln2 fusion (human)
Technique: yeast growth competition, sequencing
Sample: yeast
Setting: weak parent motif
Relative to: not given
Reading: higher = stronger binding
Parent: WEE1 docking peptide (human); CTLRQKLIFSPCS; partner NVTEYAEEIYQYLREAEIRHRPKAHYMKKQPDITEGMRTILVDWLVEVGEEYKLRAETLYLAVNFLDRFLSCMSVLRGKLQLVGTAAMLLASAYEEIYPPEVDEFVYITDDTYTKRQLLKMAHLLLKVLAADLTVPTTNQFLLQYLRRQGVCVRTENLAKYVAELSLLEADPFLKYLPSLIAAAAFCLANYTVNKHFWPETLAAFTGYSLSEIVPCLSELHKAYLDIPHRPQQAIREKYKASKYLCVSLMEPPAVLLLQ
Variant	normalised enrichment score
S13A	-0.243
C1A	0.0165
I8A	-0.0715
L3A	-0.215
Q5A	-0.0143
L7A	-0.0585
F9A	-0.256

Further values, each from its own experiment
Oligonucleotide	target	assay	test system	conditions	scale	measurement	value
GGGAGUUCUACAGUCCGACGAUCAAAUUUAUUUCAUGCCCUGGACUCCCUAUCGUACCGAUACUUUAACCGAAUAUGCUUCUUCCGAAGAUUUCCAAAACCGUCGCCAAACAACAACAUAUAAACUUCCAAAUCGAGCCGAUGCAACAGAGGAUUGAGCAUCA	RING finger protein unkempt homolog, zinc fingers 1-6, SBP tag (UNK, Homo sapiens, UniProt Q9C0B0, residues 30-357)	RNA Bind-n-Seq	RNA, in vitro	100 nM, RNA with constant flanks, ends assumed	relative to: input RNA pool, higher = stronger binding	bound/input enrichment	0.836 ratio

Some of these lines once more (sample 4):
Oligonucleotide	fluorescence intensity [a.u.]
GAATGCAGTTTATGATATGTGATCGCGTTAAAATAG	544
CTAGATTTATCAGAAGACGTGACCTAGGGTTCTTTC	1230
GAACATAGCATGCGGCTGATGTCAGATTTCGAATAG	520
GAATATAATGTGGGTGATGAAACACGGATTATATAG	541
CTAGAAACTGTTCTATGCGTGCAAAATGATATGTTC	567
CTATTAGACATTTCCCACGTATACAAATATATTTTC	510
CTAGATATCCCTGGTCACCTTACTATCTTCCAATTC	620
CTATTCATATCCTAAAACGTGTTGACAACACTTTTC	599
CTAAACTCATCTGTTCTCGTGTGCGCCTGTGTGTTC	562
CTAACGCTTCAATGACGCCTGATGTCAAATGCTTTC	576
GAATGGGTGTGGTGTGGTGTGGGTGTGGGTGTGTAG	545
GAATGGAATACCAGTTTAATCACGATCAGAAATTAG	684
TGTACGAAGCTATGTTTCATCAGTATAGTAGTTAGG	526
GAAGAACGTTCGTGCGGGGTGATGGTTAGAAAGTAG	575
